Results pooled from the literature.
Protocols differ between the studies behind these lines. ± marks the error that the study gave.
Cell line: WI-38
Technique: MTT

| SMILES | assay | setting | quantity | value |
| --- | --- | --- | --- | --- |
| CC1=[N+]2N=C(c3ccccc3)[O][Pd-2]2([Cl])[O+]=C2Oc3ccccc3C=C21 (stereo not drawn) | cytotoxicity | 24 h | IC50 | 57.2 ± 2.8 µM |
| N=C(N)Nc1nc2ccccc2[nH]1 |  | concentration not given, 24 h | cytotoxicity | not toxic |
| CC(=NNC(=N)N)c1nnn(-c2ccc(C#CC3(O)CCCCC3)cc2)c1C | cytotoxicity |  | IC50 | 70.2 µg/mL |
| CSc1nc(Nc2ccc(/C(C)=N/NC(=O)c3ccc([N+](=O)[O-])cc3[N+](=O)[O-])cc2)c(C#N)c(-c2ccccc2)n1 | cell growth or viability |  | IC50 | 63.4 µM |
| N=C(N)Nc1nc2ccccc2o1 |  | concentration not given, 24 h | cytotoxicity | not toxic |
| Cc1ccc(C(=O)/C=C/c2cn(CC(=O)Nc3nc(-c4ccccc4)cs3)nn2)cc1 |  | 72 h, 100% viability, 10% FBS | safe concentration | 1180 nM |
| COc1ccc(NC(=O)CCc2nc3cc(Cl)ccc3[nH]c2=O)cc1 | cytotoxicity |  | IC50 | 88.7 ± 3.9 µM |
| O=C(Cn1cc(/C=C/C(=O)c2ccccc2)nn1)Nc1nc(-c2ccccc2)cs1 |  | 72 h, 100% viability, 10% FBS | safe concentration | 449 nM |
| O=C(CCc1nc2cc(Cl)ccc2[nH]c1=O)Nc1ccc(O)cc1 | cytotoxicity |  | IC50 | 94.3 ± 3.5 µM |

Repeated from above:
| SMILES | assay | setting | quantity | value |
| --- | --- | --- | --- | --- |
| COc1ccc(NC(=O)CCc2nc3cc(Cl)ccc3[nH]c2=O)cc1 | cytotoxicity |  | IC50 | 88.7 ± 3.9 µM |
